Measurements of several laboratories.
Parts stem from different laboratories: compare values within a part only.

Series 1
Target: Sal-like protein 4, full length isoform B (SALL4, Homo sapiens, UniProt Q9UJQ4-2, residues 1-616)
Method: universal PBM
Form: double-stranded DNA, one strand shown
Sample: in vitro
Concentration: not given
Setting: 8-mer, flanks averaged, mean of replicates
Reading: higher = stronger binding
Measurement: E-score
Residues (chain): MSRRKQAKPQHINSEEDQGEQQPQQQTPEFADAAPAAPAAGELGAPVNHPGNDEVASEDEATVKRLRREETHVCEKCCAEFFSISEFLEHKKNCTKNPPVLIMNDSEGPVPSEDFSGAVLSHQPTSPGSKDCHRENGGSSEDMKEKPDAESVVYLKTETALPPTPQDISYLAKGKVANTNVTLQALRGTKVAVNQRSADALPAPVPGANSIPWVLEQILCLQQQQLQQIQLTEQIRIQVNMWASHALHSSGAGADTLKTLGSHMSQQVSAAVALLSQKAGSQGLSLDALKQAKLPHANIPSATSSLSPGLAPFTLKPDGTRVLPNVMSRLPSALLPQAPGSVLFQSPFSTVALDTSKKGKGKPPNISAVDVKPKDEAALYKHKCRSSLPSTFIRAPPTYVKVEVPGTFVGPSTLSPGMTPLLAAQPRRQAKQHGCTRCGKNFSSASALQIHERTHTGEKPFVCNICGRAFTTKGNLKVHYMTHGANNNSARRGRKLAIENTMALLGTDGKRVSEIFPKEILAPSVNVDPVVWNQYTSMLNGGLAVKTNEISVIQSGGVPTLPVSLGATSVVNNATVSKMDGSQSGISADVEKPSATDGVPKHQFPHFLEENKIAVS
CGAGGTCA: -0.175
CTTAAAAC: 0.0679
ATGTACAC: 0.216
GAAAACTC: -0.0696
GCGGCGCA: -0.137
CGGCCTCC: -0.335
CCTGCCGA: -0.19

Series 2
Target: Histone acetyltransferase KAT6A, winged helix 2, GST fusion (KAT6A, Homo sapiens, UniProt Q92794, residues 85-181)
Method: protein binding microarray
Form: double-stranded DNA, one strand shown
Sample: in vitro
Concentration: not given
Setting: 8-mer, flanks averaged, mean of 2 arrays, mostly near background
Reference: not given
Reading: higher = stronger binding
Measurement: E-score
Residues (chain): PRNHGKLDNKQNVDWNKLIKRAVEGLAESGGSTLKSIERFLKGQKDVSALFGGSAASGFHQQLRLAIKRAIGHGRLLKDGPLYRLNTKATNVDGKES
ATCCCATG: -0.202
AATCATAG: 0.0348
ACCTTCCG: 0.151
CCCATCCG: -0.0153
CGACGGTC: -0.121
ACATACGT: -0.244
AGCCTCGC: 0.038
GTCAATGA: -0.121

Series 3
Target: Prothrombin, mature alpha-thrombin (F2, Homo sapiens, UniProt P00734)
Method: aptamer microarray, sandwich
Form: DNA with 2'F-ANA
Sample: in vitro
Concentration: 200 nM
Setting: whole 15-mer aptamer, many near background
With: Cy3 exosite-II aptamer, 400 nM
Reading: higher = stronger binding
Measurement: mean fluorescence intensity
Oligonucleotide: GGTTGGTGTGGTTGG
2'F-ANA at 1 3 4 5 9 10 11 12 15: 53.9 a.u.
2'F-ANA at 1 2 3 6 7 8 10 12 14: 163 a.u.
2'F-ANA at 2 3 4 5 8 9 10 15: 81.3 a.u.
2'F-ANA at 3 5 6 7 8 9 15: 153 a.u.
2'F-ANA at 2 3 8 10 11 12 15: 372 a.u.
2'F-ANA at 1 4 5 8 9 10 11 13: 68.3 a.u.

Further values, each from its own experiment
PhoQ, residues 284 288 289 292 302 303 QWQEDG — fold induction (PhoP, residues 12 14 15 18 19 NHFIF (Escherichia coli, UniProt P23836); Sort-seq, measured: YFP reporter; E. coli; PhoQ-PhoP variant library, with: 10 µM Mg2+; reference: high Mg2+ state, higher = stronger signaling): 6.29
